{"data": "Measurements of several laboratories", "note": "Parts stem from different laboratories: compare values within a part only.", "chain of UniProt P47898 (whole entry, looked up)": "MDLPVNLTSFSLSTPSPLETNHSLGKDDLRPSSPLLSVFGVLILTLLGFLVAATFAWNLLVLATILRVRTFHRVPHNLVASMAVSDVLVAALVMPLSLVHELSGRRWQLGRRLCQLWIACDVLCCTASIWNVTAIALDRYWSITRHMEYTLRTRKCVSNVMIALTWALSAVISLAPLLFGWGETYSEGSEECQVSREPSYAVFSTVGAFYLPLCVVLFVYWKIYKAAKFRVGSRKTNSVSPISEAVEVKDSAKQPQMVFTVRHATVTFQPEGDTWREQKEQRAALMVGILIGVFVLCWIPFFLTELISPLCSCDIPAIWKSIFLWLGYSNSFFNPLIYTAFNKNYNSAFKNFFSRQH", "chain of UniProt P00519 (whole entry, unmodified, looked up)": "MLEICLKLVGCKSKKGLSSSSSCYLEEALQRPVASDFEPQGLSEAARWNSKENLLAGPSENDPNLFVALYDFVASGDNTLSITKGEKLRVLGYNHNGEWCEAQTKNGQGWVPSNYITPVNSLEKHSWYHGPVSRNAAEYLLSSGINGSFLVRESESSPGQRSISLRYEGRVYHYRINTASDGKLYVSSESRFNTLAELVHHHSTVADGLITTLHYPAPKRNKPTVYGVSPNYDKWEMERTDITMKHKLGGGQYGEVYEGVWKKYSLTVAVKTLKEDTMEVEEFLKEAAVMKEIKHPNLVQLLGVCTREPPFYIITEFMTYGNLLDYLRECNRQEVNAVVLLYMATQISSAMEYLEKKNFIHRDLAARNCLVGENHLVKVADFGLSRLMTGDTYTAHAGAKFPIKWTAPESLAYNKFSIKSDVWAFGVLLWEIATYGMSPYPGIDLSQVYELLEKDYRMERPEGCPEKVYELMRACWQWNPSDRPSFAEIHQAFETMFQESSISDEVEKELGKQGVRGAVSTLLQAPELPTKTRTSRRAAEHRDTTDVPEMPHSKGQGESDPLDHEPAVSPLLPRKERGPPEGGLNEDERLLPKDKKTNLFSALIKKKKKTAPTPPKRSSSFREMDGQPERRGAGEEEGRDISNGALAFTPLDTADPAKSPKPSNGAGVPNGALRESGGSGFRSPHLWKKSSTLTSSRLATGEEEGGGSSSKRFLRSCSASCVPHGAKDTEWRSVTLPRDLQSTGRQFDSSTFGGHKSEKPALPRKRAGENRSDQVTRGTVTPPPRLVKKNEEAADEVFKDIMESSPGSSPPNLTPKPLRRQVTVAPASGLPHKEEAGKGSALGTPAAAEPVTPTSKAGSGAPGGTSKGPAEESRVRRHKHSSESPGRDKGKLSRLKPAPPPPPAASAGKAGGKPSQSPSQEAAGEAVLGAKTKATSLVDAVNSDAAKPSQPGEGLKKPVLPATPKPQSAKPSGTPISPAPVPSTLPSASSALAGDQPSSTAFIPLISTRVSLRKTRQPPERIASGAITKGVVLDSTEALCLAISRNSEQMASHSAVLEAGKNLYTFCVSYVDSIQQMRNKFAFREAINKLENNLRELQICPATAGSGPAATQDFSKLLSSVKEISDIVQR"}
{"data": "Sample 1", "target": "Serine/threonine-protein kinase MRCK alpha (CDC42BPA, Homo sapiens, UniProt Q5VT25)", "effect on": "enzyme activity", "action": "inhibitor", "tested at": "0.5 µM", "reference": "control", "chain of UniProt Q5VT25 (whole entry, looked up)": "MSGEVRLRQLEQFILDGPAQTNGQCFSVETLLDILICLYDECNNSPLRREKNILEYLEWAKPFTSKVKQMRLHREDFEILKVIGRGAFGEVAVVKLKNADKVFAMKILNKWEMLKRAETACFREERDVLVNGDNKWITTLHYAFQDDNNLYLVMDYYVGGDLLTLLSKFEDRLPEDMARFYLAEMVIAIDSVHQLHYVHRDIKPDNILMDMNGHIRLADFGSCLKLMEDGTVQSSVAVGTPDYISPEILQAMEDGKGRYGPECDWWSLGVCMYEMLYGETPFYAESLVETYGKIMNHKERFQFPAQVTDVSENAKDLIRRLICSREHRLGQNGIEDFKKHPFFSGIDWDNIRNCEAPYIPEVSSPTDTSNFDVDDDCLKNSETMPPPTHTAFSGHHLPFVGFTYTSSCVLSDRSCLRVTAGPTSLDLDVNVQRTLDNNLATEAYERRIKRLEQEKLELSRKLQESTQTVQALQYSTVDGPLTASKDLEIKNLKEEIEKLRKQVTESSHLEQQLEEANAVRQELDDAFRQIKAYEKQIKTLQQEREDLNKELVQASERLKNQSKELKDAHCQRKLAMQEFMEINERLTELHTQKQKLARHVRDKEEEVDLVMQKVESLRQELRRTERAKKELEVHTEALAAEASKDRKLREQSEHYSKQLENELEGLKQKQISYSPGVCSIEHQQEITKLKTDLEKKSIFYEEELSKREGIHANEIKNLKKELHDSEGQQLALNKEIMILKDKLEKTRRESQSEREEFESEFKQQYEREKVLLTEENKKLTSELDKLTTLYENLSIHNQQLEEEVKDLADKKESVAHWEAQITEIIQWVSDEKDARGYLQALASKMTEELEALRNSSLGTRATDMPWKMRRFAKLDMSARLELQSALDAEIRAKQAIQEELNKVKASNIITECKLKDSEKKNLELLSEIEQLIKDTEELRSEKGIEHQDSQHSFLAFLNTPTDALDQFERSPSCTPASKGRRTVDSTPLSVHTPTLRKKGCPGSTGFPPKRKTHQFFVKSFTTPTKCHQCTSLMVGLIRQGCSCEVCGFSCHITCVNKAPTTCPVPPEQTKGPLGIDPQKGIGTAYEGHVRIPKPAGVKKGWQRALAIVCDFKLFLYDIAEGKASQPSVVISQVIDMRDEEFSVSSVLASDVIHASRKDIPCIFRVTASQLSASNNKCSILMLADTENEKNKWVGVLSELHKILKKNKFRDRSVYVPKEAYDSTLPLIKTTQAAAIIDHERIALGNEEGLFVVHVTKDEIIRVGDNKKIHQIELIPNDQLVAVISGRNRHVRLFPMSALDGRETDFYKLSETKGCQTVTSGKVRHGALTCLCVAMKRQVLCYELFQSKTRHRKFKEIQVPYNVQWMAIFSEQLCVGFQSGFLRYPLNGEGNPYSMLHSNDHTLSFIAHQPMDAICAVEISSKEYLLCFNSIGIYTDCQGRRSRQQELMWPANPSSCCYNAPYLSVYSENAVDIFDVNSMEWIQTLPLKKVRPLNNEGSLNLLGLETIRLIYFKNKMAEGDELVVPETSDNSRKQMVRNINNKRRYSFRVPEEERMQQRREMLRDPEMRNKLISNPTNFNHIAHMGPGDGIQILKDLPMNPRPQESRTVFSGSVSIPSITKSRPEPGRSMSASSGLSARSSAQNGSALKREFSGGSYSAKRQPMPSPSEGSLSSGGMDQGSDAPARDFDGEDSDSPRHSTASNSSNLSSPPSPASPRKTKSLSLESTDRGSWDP"}
{"Structure (SMILES)": "Cn1sc(=O)n(Cc2ccccc2)c1=O", "remaining activity [%]": 94}
{"Structure (SMILES)": "O=C1NC(=O)C(c2cn(CCCO)c3ncccc23)=C1c1cnccn1", "remaining activity [%]": 78.6}
{"Structure (SMILES)": "COc1cc2ncnc(Nc3ccc(F)c(Cl)c3)c2cc1OCCCN1CCOCC1", "remaining activity [%]": 87.8}
{"Structure (SMILES)": "O=C(Nc1cccc(Nc2cc(Nc3cccc(C(F)(F)F)c3)ncn2)c1)C1CC1", "remaining activity [%]": 77.7}
{"Structure (SMILES)": "O=C1NC(=O)C(c2cn(CCCn3ccnc3)c3ccccc23)=C1Nc1ccccc1", "remaining activity [%]": 95.2}
{"Structure (SMILES)": "N#CC(C#N)=C(N)/C(C#N)=C/c1ccc(O)cc1", "remaining activity [%]": 96.2}
{"Structure (SMILES)": "COc1ccc(CNC(=O)Nc2ncc([N+](=O)[O-])s2)cc1", "remaining activity [%]": 93.7}
{"Structure (SMILES)": "Cc1cccc(-c2[nH]c(C(C)(C)C)nc2-c2ccc3c(c2)OCO3)n1", "remaining activity [%]": 89.6}
{"Structure (SMILES)": "Cc1ccc(NC(=O)c2ccc(CN3CCN(C)CC3)cc2)cc1Nc1nc(-c2cccnc2)cs1", "remaining activity [%]": 104}
{"Structure (SMILES)": "Nc1ccc2ncnc(NCCc3ccc(Oc4ccccc4)cc3)c2c1", "remaining activity [%]": 102}
{"Structure (SMILES)": "CO[C@H]1C[C@@H]2CC[C@@H](C)[C@@](O)(O2)C(=O)C(=O)N2CCCC[C@H]2C(=O)O[C@H]([C@H](C)C[C@@H]2CC[C@@H](O)[C@H](OC)C2)CC(=O)[C@H](C)/C=C(\\C)[C@@H](O)[C@@H](OC)C(=O)[C@H](C)C[C@H](C)/C=C/C=C/C=C/1C", "remaining activity [%]": 95.6}
{"Structure (SMILES)": "O=C(O)c1ccc2c3c1cccc3c(=O)n1c3ccccc3nc21", "remaining activity [%]": 96.1}
{"Structure (SMILES)": "CNC(=O)c1cc(Oc2ccc(NC(=O)Nc3ccc(Cl)c(C(F)(F)F)c3)cc2)ccn1", "remaining activity [%]": 85.2}
{"Structure (SMILES)": "CC(C)[C@H](CO)Nc1nc(Nc2cc(N)cc(Cl)c2)c2ncn(C(C)C)c2n1", "remaining activity [%]": 99.4}
{"Structure (SMILES)": "Cn1c2ccccc2c2c3c(c4c5ccccc5n(CCC#N)c4c21)CNC3=O", "remaining activity [%]": 89.9}
{"Structure (SMILES)": "O=c1c2ccccc2[nH]c(=S)n1CCN1CCC(=C(c2ccc(F)cc2)c2ccc(F)cc2)CC1", "remaining activity [%]": 97.7}
{"data": "Sample 2", "cell line": "mouse MPNST tumor cells", "method": "high-content nuclear imaging", "refers to": "cell number", "tested at": "10 µM", "time": "12 h", "notes": "mean of 2 replicates", "reference": "plate mean", "reading": "higher = more cells"}
{"SMILES": "CN(CCOc1ccc(-c2ccc3c(c2)OCO3)cc1C(C)(C)C)CC(=O)O", "nuclei count [z-score]": 2.26}
{"SMILES": "Cc1c(Cl)cccc1Nc1ncccc1C(=O)O", "nuclei count [z-score]": 0.772}
{"SMILES": "O=C(NCCO[N+](=O)[O-])c1cccnc1", "nuclei count [z-score]": 2}
{"SMILES": "CC(C)Oc1cccc(-n2c(CCc3c[nH]c4ccc(Br)cc34)nc3ccccc3c2=O)c1", "nuclei count [z-score]": 0.812}
{"SMILES": "Cc1cccc(Nc2ccccc2C(=O)O)c1C", "nuclei count [z-score]": 0.432}
{"SMILES": "c1ccc(COCCCc2c[nH]cn2)cc1", "nuclei count [z-score]": 2.11}
{"data": "Sample 3", "species": "human", "matrix": "microsomes or S9", "tested at": "2 µM", "time": "0.5 h"}
{"Structure (SMILES)": "CC(Oc1cccnc1N)c1nnc2ccc(Cl)nn12 (centres unmarked)", "remaining compound [%]": 92.5}
{"Structure (SMILES)": "CCC1c2cccn2-c2sc3c(c2CN1C(=O)NCCCOC)CCCC3 (centres unmarked)", "remaining compound [%]": 2.9}
{"Structure (SMILES)": "CCc1nc(C)sc1Cn1cc(-c2cn(CC)nc2C)nn1", "remaining compound [%]": 97}
{"Structure (SMILES)": "CCC(O)(c1ccccc1)c1cc(Cl)ccc1N (centres unmarked)", "remaining compound [%]": 62.6}
{"Structure (SMILES)": "COc1ccc(S(=O)(=O)Nc2ncccn2)cc1", "remaining compound [%]": 82.1}
{"Structure (SMILES)": "COc1cc(=O)[nH]cc1C(=O)NC1CCN(c2c(F)cccc2F)C1 (centres unmarked)", "remaining compound [%]": 86.5}
{"Structure (SMILES)": "COc1ccc(CCN(Cc2nc(-c3ccccc3)no2)Cc2nc(-c3ccccc3)no2)cc1OC", "remaining compound [%]": 0.367}
{"Structure (SMILES)": "CC(C)(C)OC(=O)N[C@@H](CC(=O)N1CCCN(S(C)(=O)=O)CC1)Cc1cc(F)c(F)cc1F", "remaining compound [%]": 13.1}
{"data": "Further values, each from its own experiment"}
{"SMILES": "CCC(=NO)C(C)=Cc1ccc(F)c(C)c1", "target": "ABL1 (Homo sapiens, UniProt P00519, F317I)", "assay": "KINOMEscan", "setting": "1 µM, F317I mutant, nonphosphorylated", "scale": "reference: control", "endpoint": "remaining binding", "value": "100%"}
{"SMILES": "COc1cc(-c2cn(C3CCc4c(F)cccc4N(CC(F)(F)F)C3=O)nn2)ccc1-n1cnc(C)c1 (centres unmarked)", "target": "HTR5A (Homo sapiens, UniProt P47898)", "assay": "ligand displacement", "setting": "10 µM", "endpoint": "inhibition", "value": "7.61%"}
